Measurements gathered from unrelated publications.
Numbered parts are unrelated; each lists some results of a single study. “And” joins repeats or separate records; there may be more than shown.

Study 1
Structure (SMILES): CCN1/C(=C/C=C2\CCCC(/C=C/C3=[N+](CC)c4ccccc4C3(C)C)=C2NCCCCCCCCN2CCC(Nc3nc4ccccc4n3Cc3ccc(F)cc3)CC2)C(C)(C)c2ccccc21
Cell line: U-87 MG
Concentration: concentration not given
Baseline: DMSO
Quantity: log2 fold change
measured: C11orf87 mRNA: -3.7
measured: MYLIP mRNA: 2.09
measured: FAM110A mRNA: -1.11
measured: SLC7A7 mRNA: 1.8
measured: FANCC mRNA: -0.91
measured: ZBTB43 mRNA: 0.884
measured: ZIC4 mRNA: -0.846
measured: NCOA7 mRNA: 1.24
measured: ATP23 mRNA: -1.27
measured: FGF14 mRNA: 2.41
measured: WFDC3 mRNA: -1.53
measured: LSR: -1.88
measured: PDE4D mRNA: 1.39
measured: FANCB mRNA: -1.86
measured: RFTN2 mRNA: 1.76
measured: ASB9 mRNA: -2.8

Study 2
Structure (SMILES): CC(C)=CCN1C(=O)C(O)(C(=O)O)Oc2cc(F)ccc21 (stereo not shown)
Quantity: inhibition
Arabidopsis thaliana; hypocotyl length; Col-0; 12.5 µg/mL, 7 days, seed germination, dark: 4.6%
Arabidopsis thaliana; hypocotyl length; Col-0, seedlings; 12.5 µg/mL: 4.64%
Arabidopsis thaliana; root length; Col-0, seedlings; 6.25 µg/mL; baseline: water control: 11.9%
Amaranthus retroflexus; fresh weight; 150 g ai/ha, post-emergence treatment: 29.1% and 28.2% and 34.3%
Glycine max; fresh weight; soil surface spray, 150 g ai/ha, 21 days, pre-emergence crop safety: 16.6% and 15.1% and 15.7%
Arabidopsis thaliana; hypocotyl length; Col-0; 100 µg/mL, 7 days, seed germination, dark: 31.5%
Arabidopsis thaliana; root length; Col-0, seedlings; 25 µg/mL: 17.9%
Arabidopsis thaliana; root length; Col-0, seedlings; 25 µg/mL; baseline: water control: 17.9%
Arabidopsis thaliana; root length; Col-0, seedlings; 50 µg/mL: 30.9%
Arabidopsis thaliana; hypocotyl length; Col-0; 25.0 µg/mL, 7 days, seed germination, dark: 11.8%
Arabidopsis thaliana; hypocotyl length; Col-0, seedlings; 100 µg/mL: 31.5%
Arabidopsis thaliana; root length; Col-0, seedlings; 50 µg/mL; baseline: water control: 30.9%
Avena fatua; fresh weight; 150 g ai/ha, pre-emergence treatment: 37.8% and 41.5% and 46.7%

Study 3
Host: CD-1 mouse, female
Sample: plasma
Route: oral
Dose: 20 mg/kg
Quantity: half-life
Cc1ccc(O)c(C)c1-c1cnc2[nH]c(-c3cnc(N4CCC(CN5CCN(c6ccc7c(c6F)CN(C6CCC(=O)NC6=O)C7=O)CC5)CC4)nc3)cc2c1C#N (stereo not shown): 2.3 h
Cc1ccc(O)c(C)c1-c1cnc2[nH]c(-c3cnc(N4CCC5(CC4)CC(N4CCN(c6ccc(NC7CCC(=O)NC7=O)cc6F)CC4)CO5)nc3)cc2c1C#N (stereo not shown): 4.5 h
Cc1ccc(O)c(C)c1-c1cnc2[nH]c(-c3cnc(N4CCC(CN5CCN(c6cc7c(cc6F)n(C6CCC(=O)NC6=O)c(=O)n7C)CC5)CC4)nc3)cc2c1C#N (stereo not shown): 2.6 h

Study 4
SMILES: C[C@@H]1CN(c2ccc(-c3cc(C(=O)NCCOCCOCCOCCOCCNC(=O)/C=C/c4[nH]cc(C(=O)N[C@@H](CC(N)=O)c5ccc(F)c(Cl)c5)c4-c4ccc(Cl)cc4F)ccc3F)cc2NC(=O)c2c[nH]c(=O)cc2C(F)(F)F)C[C@H](C)N1C
Read-out: thermal unfolding
Method: differential scanning fluorimetry
Concentration: 5.5 µM
Reading: higher = more unfolded
Quantity: SYPRO Orange fluorescence
DCAF1: DDB1- and CUL4-associated factor 1 (DCAF1, Homo sapiens, UniProt Q9Y4B6)
Sequence of UniProt Q9Y4B6 (whole entry, looked up): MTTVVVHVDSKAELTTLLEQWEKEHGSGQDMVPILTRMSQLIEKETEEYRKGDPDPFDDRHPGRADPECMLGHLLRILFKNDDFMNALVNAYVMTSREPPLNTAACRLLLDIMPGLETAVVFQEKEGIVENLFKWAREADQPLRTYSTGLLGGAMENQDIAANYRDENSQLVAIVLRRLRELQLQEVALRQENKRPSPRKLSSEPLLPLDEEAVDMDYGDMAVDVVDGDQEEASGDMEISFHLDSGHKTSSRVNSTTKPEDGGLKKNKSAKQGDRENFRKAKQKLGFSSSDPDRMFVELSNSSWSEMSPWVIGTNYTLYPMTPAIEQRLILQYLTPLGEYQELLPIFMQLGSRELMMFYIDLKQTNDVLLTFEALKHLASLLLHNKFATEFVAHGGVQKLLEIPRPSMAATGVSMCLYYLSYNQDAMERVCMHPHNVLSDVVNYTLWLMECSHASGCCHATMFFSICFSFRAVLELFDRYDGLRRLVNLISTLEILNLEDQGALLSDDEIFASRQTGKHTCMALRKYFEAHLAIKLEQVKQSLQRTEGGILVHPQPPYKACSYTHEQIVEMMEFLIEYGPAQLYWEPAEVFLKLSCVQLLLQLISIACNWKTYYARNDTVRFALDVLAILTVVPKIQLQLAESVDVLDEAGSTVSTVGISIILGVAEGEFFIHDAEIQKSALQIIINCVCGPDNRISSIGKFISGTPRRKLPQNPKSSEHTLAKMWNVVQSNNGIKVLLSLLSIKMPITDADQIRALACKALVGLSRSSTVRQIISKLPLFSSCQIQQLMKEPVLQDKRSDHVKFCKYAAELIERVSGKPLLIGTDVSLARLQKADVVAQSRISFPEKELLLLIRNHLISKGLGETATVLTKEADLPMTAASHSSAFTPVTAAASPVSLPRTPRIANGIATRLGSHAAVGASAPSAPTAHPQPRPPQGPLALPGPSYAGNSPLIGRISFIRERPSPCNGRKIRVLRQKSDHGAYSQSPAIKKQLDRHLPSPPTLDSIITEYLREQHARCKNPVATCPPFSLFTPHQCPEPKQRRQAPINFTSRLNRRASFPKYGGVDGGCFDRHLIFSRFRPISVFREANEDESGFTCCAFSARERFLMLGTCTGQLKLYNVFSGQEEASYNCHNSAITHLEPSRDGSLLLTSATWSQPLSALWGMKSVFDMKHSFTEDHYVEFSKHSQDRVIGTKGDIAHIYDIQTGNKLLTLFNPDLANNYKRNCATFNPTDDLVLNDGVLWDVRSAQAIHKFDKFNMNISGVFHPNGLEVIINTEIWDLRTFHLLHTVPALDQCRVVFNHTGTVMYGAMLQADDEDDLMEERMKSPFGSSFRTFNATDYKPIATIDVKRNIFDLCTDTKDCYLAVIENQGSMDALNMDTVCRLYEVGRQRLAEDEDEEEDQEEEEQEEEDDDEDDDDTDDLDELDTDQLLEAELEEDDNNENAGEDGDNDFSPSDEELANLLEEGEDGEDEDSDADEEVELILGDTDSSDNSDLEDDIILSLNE
WDR5: WD repeat-containing protein 5 (WDR5, Homo sapiens, UniProt P61964)
DCAF1; 75.01 °C: 50000 a.u.
DCAF1; 53.21 °C: 18200 a.u.
DCAF1; 85.61 °C: 39500 a.u.
WDR5; 35.2 °C: 13300 a.u.
DCAF1; 64.01 °C: 56800 a.u.
DCAF1; 25.4 °C: 9000 a.u.
DCAF1; 55.61 °C: 22900 a.u.
DCAF1; 61.61 °C: 48400 a.u.
WDR5; 88.81 °C: 52400 a.u.
DCAF1; 94.41 °C: 30300 a.u.
WDR5; 91.41 °C: 49200 a.u.

Excerpt of the above (study 1):
measured: ASB9 mRNA: -2.8
measured: WFDC3 mRNA: -1.53
measured: LSR: -1.88
measured: MYLIP mRNA: 2.09
